{"data": "Results pooled from the literature", "organism": "Pseudomonas aeruginosa", "note": "Lines come from different studies, so protocols differ."}
{"Structure (SMILES)": "COc1ccc2ccc3c(c2c1)C=[N+]1C2CCCCC2[N+]2=Cc4c(F)cccc4[O][Au-]21[O]3.F[P-](F)(F)(F)(F)F (stereo not shown)", "assay": "bacterial growth, broth microdilution", "test system": "carbapenem-resistant clinical isolate", "conditions": "24 h", "MIC": "> 20 µM"}
{"Structure (SMILES)": "O=C(NCCNCCO)c1cn(Cc2ccc(F)cc2)c2cc(Cl)c(OCc3ccc(C(F)(F)F)cc3)cc2c1=O", "test system": "ATCC 27853", "how to read": "≥80% growth inhibition", "MIC": "< 0.25 µg/mL"}
{"Structure (SMILES)": "Cc1cc(O)cc2c1C(=O)c1c(cc3oc(=O)cc(-c4ccc(Cl)cc4)c3c1O)C2=O", "assay": "microbial growth", "MIC": "64 µg/mL"}
{"Structure (SMILES)": "COc1ccc2c(oc3c4ccc(O)cc4oc(=O)c23)c1CC=C(C)C", "test system": "ATCC 10145", "MIC": "128 µg/mL"}
{"Structure (SMILES)": "CC(=NNC(=N)N)c1nnn(-c2ccc(C#CC3(O)CCCCC3)cc2)c1C", "assay": "microbial growth", "test system": "ATCC10145", "MIC": "31.2 µg/mL"}
{"Structure (SMILES)": "COc1ccc(-c2ccn(CC[C@](C)(C(=O)NO)S(C)(=O)=O)c(=O)c2)c(F)c1", "assay": "microbial growth", "test system": "UC12120", "MIC": "1 µg/mL"}
{"Structure (SMILES)": "CC[C@@H](C)[C@@H](NC(=O)[C@@H](C)NC(=O)[C@@H](CCCCN)NC(=O)[C@@H](CC(C)C)NC(=O)[C@@H](C)NC(=O)[C@H](NC(=O)[C@@H](Cc1c[nH]cn1)NC(=O)[C@@H](CC(C)C)NC(=O)[C@H](NC(=O)[C@H](NC(=O)[C@@H](CCCCN)NC(=O)[C@H](NC(=O)[C@@H](C)NC(=O)[C@@H](CO)NC(=O)[C@@H](CCCCN)NC(=O)[C@@H](Cc1ccccc1)NC(=O)[C@H](NC(=O)[C@@H](CCCCN)NC(=O)[C@@H](CC(C)C)NC(=O)[C@@H](Cc1ccccc1)NC(=O)[C@@H](CO)NC(=O)[C@@H](CCCCN)NC(=O)[C@@H](Cc1c[nH]c2ccccc12)NC(=O)[C@@H](CCCCN)NC(C)=O)[C@H](C)O)C(C)C)[C@H](C)O)C(C)C)[C@H](C)O)C(=O)N[C@H](CO)C(=O)N[C@H](CO)C(N)=O", "assay": "broth microdilution", "test system": "PAK", "conditions": "24 h, 37 °C", "MIC": "2.6 µM"}
{"Structure (SMILES)": "COc1ccc2ccc3c(c2c1)C=[N+]1C2CCCCC2[N+]2=Cc4cccc(OC)c4[O][Au-]21[O]3.F[P-](F)(F)(F)(F)F (stereo not shown)", "assay": "bacterial growth, broth microdilution", "test system": "carbapenem-resistant clinical isolate", "conditions": "24 h", "MIC": "10 µM"}
{"Structure (SMILES)": "CC(=O)N[C@H](CCCCN)C(=O)N[C@H](CC(C)C)C(=O)N[C@H](CCCCN)C(=O)N[C@H](CO)C(=O)N[C@H](CC(C)C)C(=O)N[C@H](CC(C)C)C(=O)N[C@H](CCCCN)C(=O)N[C@@H](C(=O)N[C@H](CC(C)C)C(=O)N[C@H](CO)C(=O)N[C@H](CCCCN)C(=O)N[C@H](C)C(=O)N[C@H](CCCCN)C(=O)N[C@H](CCCCN)C(=O)N[C@H](CCCCN)C(=O)N[C@H](CC(C)C)C(=O)N[C@H](CC(C)C)C(=O)N[C@H](CCCCN)C(=O)N[C@@H](C(=O)N[C@H](C)C(=O)N[C@H](CC(C)C)C(=O)N[C@H](CCCCN)C(=O)N[C@H](C)C(=O)N[C@H](CC(C)C)C(=O)N[C@H](CO)C(=O)N[C@H](CCCCN)C(N)=O)[C@H](C)O)[C@H](C)O", "assay": "broth microdilution", "test system": "PAK", "conditions": "24 h, 37 °C", "MIC": "1.3 µM"}
{"Structure (SMILES)": "CCOC(=O)c1ccc2c(c1)n(CC)[c]([Au-]([Cl])([Cl])[Cl])[n+]2CC", "assay": "broth dilution", "test system": "PA7 DSM 24068", "conditions": "20 h, 37 °C", "MIC": "58.2 µM"}
{"note": "Repeated from above:"}
{"Structure (SMILES)": "COc1ccc2ccc3c(c2c1)C=[N+]1C2CCCCC2[N+]2=Cc4c(F)cccc4[O][Au-]21[O]3.F[P-](F)(F)(F)(F)F (stereo not shown)", "assay": "bacterial growth, broth microdilution", "test system": "carbapenem-resistant clinical isolate", "conditions": "24 h", "MIC": "> 20 µM"}
{"Structure (SMILES)": "CC(=O)N[C@H](CCCCN)C(=O)N[C@H](CC(C)C)C(=O)N[C@H](CCCCN)C(=O)N[C@H](CO)C(=O)N[C@H](CC(C)C)C(=O)N[C@H](CC(C)C)C(=O)N[C@H](CCCCN)C(=O)N[C@@H](C(=O)N[C@H](CC(C)C)C(=O)N[C@H](CO)C(=O)N[C@H](CCCCN)C(=O)N[C@H](C)C(=O)N[C@H](CCCCN)C(=O)N[C@H](CCCCN)C(=O)N[C@H](CCCCN)C(=O)N[C@H](CC(C)C)C(=O)N[C@H](CC(C)C)C(=O)N[C@H](CCCCN)C(=O)N[C@@H](C(=O)N[C@H](C)C(=O)N[C@H](CC(C)C)C(=O)N[C@H](CCCCN)C(=O)N[C@H](C)C(=O)N[C@H](CC(C)C)C(=O)N[C@H](CO)C(=O)N[C@H](CCCCN)C(N)=O)[C@H](C)O)[C@H](C)O", "assay": "broth microdilution", "test system": "PAK", "conditions": "24 h, 37 °C", "MIC": "1.3 µM"}
